Results gathered from unrelated publications.
Compare with care: the assays were run in different laboratories.
Organism: Klebsiella pneumoniae

CC1(C)C(NC(=O)C(=NOC2(C(=O)O)CCC2)c2csc(N)n2)C(=O)N1OS(=O)(=O)O (centres unmarked) — MIC (agar dilution; 09-20, NDM-1): 0.25 µg/mL
N=C(N)NCCC[C@@H]1NC(=O)[C@H](CCCNC(=N)N)NC(=O)[C@@H](C(c2ccccc2)c2ccccc2)NC(=O)[C@H](Cc2c[nH]c3ccccc23)NC(=O)[C@@H](C(c2ccccc2)c2ccccc2)NC(=O)[C@@H](CCCNC(=N)N)NC(=O)[C@@H](CCCNC(=N)N)NC1=O — MIC (ATCC BAA1705, KPC-2 carbapenem-resistant): 32 µg/mL
CC[C@H](C)[C@H](NC(=O)[C@H](CCCCN)NC(=O)[C@H](CCCCN)NC(=O)[C@H](Cc1ccccc1)NC(=O)[C@H](Cc1ccccc1)NC(=O)[C@H](CCCCN)NC(=O)[C@H](CCCCN)NC(=O)[C@H](Cc1ccccc1)NC(=O)[C@H](CCCNC(=N)N)NC(=O)[C@@H](N)CCCCN)C(=O)N[C@@H](CCCCN)C(=O)N[C@@H](CCCCN)C(=O)N[C@@H](CO)C(=O)N[C@H](C(=O)N[C@@H](CCCCN)C(=O)N[C@@H](CCCCN)C(=O)N[C@@H](CCCNC(=N)N)C(=O)N[C@H](C(=O)N[C@@H](CCCCN)C(=O)N[C@@H](CCCCN)C(=O)N[C@@H](CC(C)C)C(=O)N[C@@H](Cc1ccccc1)C(=O)N[C@@H](CCCCN)C(=O)N[C@@H](CCCCN)C(=O)N1CCC[C@H]1C(=O)N[C@@H](CCCNC(=N)N)C(=O)N[C@H](C(=O)N[C@H](C(=O)N1CCC[C@H]1C(=O)N[C@H](C(=O)N[C@@H](CO)C(=O)N[C@H](C(=O)N1CCC[C@H]1C(=O)N[C@@H](Cc1ccccc1)C(=O)O)[C@@H](C)CC)[C@@H](C)CC)[C@@H](C)CC)C(C)C)C(C)C)C(C)C — MIC (broth microdilution; ATCC 13883; 20 h): 2 µg/mL
COc1ccc2ccc(O)c(/C=N/[C@H]3CCCC[C@H]3/N=C/c3ccc(F)cc3O)c2c1 — MIC (bacterial growth, broth microdilution; carbapenem-resistant): > 40 µM
CN[C@@H]1[C@H](O)[C@H](NC)[C@H]2O[C@]3(O)[C@H](O[C@@H]2[C@H]1O)O[C@H](C)C[C@H]3NC(=O)Cc1cc(Cl)ccn1 — MIC (microbial growth, broth dilution; ATCC33495): > 200 µg/mL
CC[C@H](C)[C@H](N)C(=O)N[C@@H](CCCNC(=N)N)C(=O)N[C@H](C(=O)N[C@@H](Cc1c[nH]c2ccccc12)C(=O)N[C@@H](Cc1ccccc1)C(=O)N[C@H](C(=O)N[C@@H](CCCCN)C(=O)N[C@H](C(=O)N[C@@H](CCCNC(=N)N)C(=O)N[C@@H](CCCCN)C(=O)N[C@@H](CCSC)C(=O)N[C@@H](CCCCN)C(=O)N[C@@H](C)C(=O)N[C@H](C(=O)N[C@@H](Cc1ccc(O)cc1)C(=O)N[C@@H](Cc1c[nH]cn1)C(=O)N[C@H](C(N)=O)[C@@H](C)O)[C@@H](C)CC)C(C)C)[C@@H](C)CC)C(C)C — MIC (broth dilution; ATCC 700603): 25 µM
CCn1c(-c2ccc(F)cc2)c(-c2ccc(F)cc2)n(CCOC)c1=[Se] — MIC (broth microdilution; carbapenem-resistant BAA-1705; 24 h): > 40 µM
CC(C)[C@H](NC(=O)C(NC(=O)CC[C@H](N)C(=O)O)C(O)C(N)=O)C(=O)N(C)CC(=O)N[C@H](Cc1c[nH]c2ccc([N+](=O)[O-])cc12)C(=O)NC[C@@H]1NC(=O)[C@@H](Cc2c[nH]c3ccc([N+](=O)[O-])cc23)NC1=O (some centres unmarked) — MIC (MGH78578; 18 h, 37 °C): 200 µM
CC(C)C[C@H](NC(=O)[C@H](CC(C)C)NC(=O)[C@H](CCCCN)NC(=O)[C@H](Cc1ccccc1)NC(=O)[C@@H](NC(=O)[C@H](CCCNC(=N)N)NC(=O)[C@H](CCCCN)NC(=O)[C@H](Cc1c[nH]c2ccccc12)NC(=O)[C@@H](NC(=O)[C@@H](N)CCCNC(=N)N)C(C)C)C(C)C)C(=O)N[C@@H](CCCCN)C(=O)N[C@@H](CCCNC(=N)N)C(=O)N[C@@H](Cc1ccc(O)cc1)C(=O)N[C@@H](Cc1c[nH]c2ccccc12)C(=O)N[C@@H](CCCNC(=N)N)C(N)=O — MIC (broth microdilution; 10145): 2.5 µg/mL
CCCCCCCC(=O)N[C@@H](CCN)C(=O)N[C@H](C(=O)N[C@@H](CCN)C(=O)N[C@H]1CCNC(=O)[C@H]([C@@H](C)O)NC(=O)[C@H](CCN)NC(=O)[C@H](CCN)NC(=O)[C@H](CCC(C)C)NC(=O)[C@@H](Cc2ccccc2)NC(=O)[C@H](CCN)NC1=O)[C@@H](C)O — MIC (broth microdilution; ATCC 19606): < 0.125 µg/mL
N=C(N)NCCC[C@@H]1NC(=O)[C@H](CCCNC(=N)N)NC(=O)[C@H](CCCNC(=N)N)NC(=O)[C@@H](CCCNC(=N)N)NC(=O)[C@H](Cc2ccc3ccccc3c2)NC(=O)[C@H](Cc2ccc3ccccc3c2)NC(=O)[C@H](Cc2ccc3ccccc3c2)NC1=O — MIC (ATCC BAA1705, KPC-2 carbapenem-resistant): 64 µg/mL
COc1ccc2ccc(O)c(/C=N/[C@H]3CCCC[C@H]3/N=C/c3ccccc3O)c2c1 — MIC (bacterial growth, broth microdilution; carbapenem-resistant): > 40 µM
CC[C@H](C)[C@H](NC(=O)[C@@H](CCCNC(=N)N)NC(=O)[C@H](CCCNC(=N)N)NC(=O)[C@@H](NC(=O)[C@H](Cc1c[nH]c2ccccc12)NC(=O)[C@H](CCCNC(=N)N)NC(=O)[C@@H]1CCCN1C(=O)[C@H](CCCNC(=N)N)NC(=O)[C@@H]1CCCN1C(=O)[C@H](CC(C)C)NC(=O)[C@H](Cc1ccc(O)cc1)NC(=O)[C@@H]1CCCN1C(=O)[C@@H]1CCCN1C(=O)[C@H](CCCCN)NC(=O)[C@H](CC(=O)O)NC(=O)[C@@H](N)C(C)C)C(C)C)C(=O)N[C@@H](Cc1ccc(O)cc1)C(=O)N[C@@H](CC(N)=O)C(=O)N[C@H](CCCNC(=N)N)C(N)=O — MIC (broth microdilution; DSM 681; 18 h, 37 °C, 25% MHB2): 4 µg/mL
CC[C@H](C)[C@H](NC(=O)[C@H](Cc1c[nH]c2ccccc12)NC(=O)[C@H](CCCNC(=N)N)NC(=O)[C@@H](N)CCCNC(=N)N)C(=O)N[C@@H](CCCNC(=N)N)C(=O)N[C@@H](Cc1c[nH]c2ccccc12)C(=O)N[C@H](C(=O)N[C@H](C(N)=O)[C@@H](C)O)[C@@H](C)CC — MIC (13883): 512 µg/mL
CC(=O)N[C@H](Cc1ccccc1F)C(=O)N[C@@H](CCN)C(=O)N[C@H](C(=O)N[C@@H](CCN)C(=O)N[C@H]1CCNC(=O)[C@H]([C@@H](C)O)NC(=O)[C@H](CCN)NC(=O)[C@H](CCN)NC(=O)[C@H](CC(C)C)NC(=O)[C@@H](Cc2ccccc2)NC(=O)[C@H](CCN)NC1=O)[C@@H](C)O — MIC (broth microdilution; ATCC 13883, colistin-susceptible): > 64 µg/mL
COc1ccc(O)c(/C=N/[C@@H]2CCCC[C@@H]2/N=C/c2c(O)ccc3ccc(OC)cc23)c1 — MIC (bacterial growth, broth microdilution; carbapenem-resistant clinical isolate): > 40 µM
CC[C@H](C)[C@H](NC(=O)[C@@H](CCCNC(=N)N)NC(=O)[C@H](CCCNC(=N)N)NC(=O)[C@@H]1CCCN1C(=O)[C@@H]1CCCN1C(=O)[C@H](CCCNC(=N)N)NC(=O)[C@@H]1CCCN1C(=O)[C@H](CCCNC(=N)N)NC(=O)[C@@H]1CCCN1C(=O)[C@H](CC(C)C)NC(=O)[C@H](Cc1c[nH]c2ccccc12)NC(=O)[C@@H]1CCCN1C(=O)[C@@H]1CCCN1C(=O)[C@H](CCCCN)NC(=O)[C@H](CC(=O)O)NC(=O)[C@@H](N)C(C)C)C(=O)N[C@@H](Cc1ccc(O)cc1)C(=O)N[C@@H](CC(N)=O)C(=O)N[C@H](CCCNC(=N)N)C(N)=O — MIC (broth microdilution; DSM 681; 18 h, 37 °C, 25% MHB2): 4 µg/mL
C#CCNC(=O)C(C)(C)O/N=C(\C(=O)N[C@@H]1C(=O)N(S(=O)(=O)O)[C@H]1C)c1csc(N)n1 — MIC (agar dilution; 09-20, NDM-1): 4 µg/mL
CC[C@H](C)[C@H](NC(=O)[C@@H](CCCNC(=N)N)NC(=O)[C@H](CCCNC(=N)N)NC(=O)[C@@H]1CCCN1C(=O)[C@@H]1CCCN1C(=O)[C@H](CCCNC(=N)N)NC(=O)[C@@H]1CCCN1C(=O)[C@H](CCCNC(=N)N)NC(=O)[C@@H]1CCCN1C(=O)[C@H](CC(C)C)NC(=O)[C@H](Cc1ccc(O)cc1)NC(=O)[C@@H]1CCCN1C(=O)[C@@H]1CCCN1C(=O)[C@H](CCCCN)NC(=O)[C@H](CC(=O)O)NC(=O)[C@@H](N)C(C)C)C(=O)N[C@@H](Cc1ccc(O)c([N+](=O)[O-])c1)C(=O)N[C@@H](CC(N)=O)C(=O)N[C@H](CCCNC(=N)N)C(N)=O — MIC (broth microdilution; DSM 681; 18 h, 37 °C, 25% MHB2): 8 µg/mL
C#CCO/N=C(\C(=O)N[C@@H]1C(=O)N(S(=O)(=O)O)[C@H]1C)c1csc(N)n1 — MIC (agar dilution; 2146 NDM-1): > 128 µg/mL
CC[C@H](C)[C@H](NC(=O)[C@H](CCCCN)NC(=O)[C@@H](NC(=O)[C@@H](NC(=O)[C@H](CC(C)C)NC(=O)[C@H](CCCNC(=N)N)NC(=O)[C@@H](NC(=O)[C@H](CC(C)C)NC(=O)[C@H](CCCNC(=N)N)NC(=O)CNC(=O)[C@H](Cc1ccccc1)NC(=O)[C@@H](N)CCCNC(=N)N)[C@@H](C)CC)[C@@H](C)CC)C(C)C)C(=O)N[C@@H](C)C(=O)N[C@@H](CCCNC(=N)N)C(=O)N[C@@H](CCCNC(=N)N)C(=O)N[C@@H](C)C(=O)N[C@@H](Cc1c[nH]cn1)C(=O)N[C@@H](CCCNC(=N)N)C(=O)N[C@@H](C)C(=O)N[C@@H](CCCNC(=N)N)C(=O)N[C@@H](CO)C(=O)N[C@@H](C)C(=O)N[C@H](C(=O)N[C@@H](CCCCN)C(=O)N[C@@H](C)C(=O)N[C@@H](C)C(=O)N[C@@H](CO)C(=O)N[C@@H](CC(N)=O)C(=O)N[C@H](C(=O)N[C@@H](C)C(=O)N[C@@H](C)C(=O)N[C@@H](CC(C)C)C(=O)N[C@@H](C)C(=O)N[C@@H](Cc1c[nH]cn1)C(=O)NCC(=O)N[C@@H](C)C(=O)O)C(C)C)C(C)C — MIC (bacterial growth, broth microdilution; cation-adjusted Mueller Hinton broth; 18 h, 37 °C): 0.516 µM
CC[C@H](C)[C@H](NC(=O)[C@@H](CCCNC(=N)N)NC(=O)[C@H](CCCNC(=N)N)NC(=O)[C@@H]1CCCN1C(=O)[C@@H]1CCCN1C(=O)[C@H](CCCNC(=N)N)NC(=O)[C@@H]1CCCN1C(=O)[C@H](CCCNC(=N)N)NC(=O)[C@@H]1CCCN1C(=O)[C@H](Cc1ccccc1)NC(=O)[C@H](Cc1ccc(O)cc1)NC(=O)[C@@H]1CCCN1C(=O)[C@@H]1CCCN1C(=O)[C@H](CCCCN)NC(=O)[C@H](CC(=O)O)NC(=O)[C@@H](N)C(C)C)C(=O)N[C@@H](Cc1ccc(O)cc1)C(=O)N[C@@H](CC(N)=O)C(=O)N[C@H](CCCNC(=N)N)C(N)=O — MIC (broth microdilution; DSM 681; 18 h, 37 °C, 25% MHB2): > 128 µg/mL
CC1(C)[C@H](NC(=O)/C(=N\OCC(=O)N2CCC(C(=O)O)C2)c2nsc(N)n2)C(=O)N1OS(=O)(=O)O (some centres unmarked) — MIC (agar dilution; 2146, NDM-1): > 64 µg/mL
